Published values of several laboratories.
Protocols differ between the studies behind these lines. Values joined by “and” are separate records of one study, mostly repeats; a detail may differ.
PRKG1 isoform beta: cGMP-dependent protein kinase 1, isoform beta (PRKG1, Homo sapiens, UniProt Q13976)
PRKG1: cGMP-dependent protein kinase 1 (PRKG1, Homo sapiens, UniProt Q13976)

| SMILES | target | assay | conditions | scale | measurement | value |
| --- | --- | --- | --- | --- | --- | --- |
| COc1c(OCCCN2CCOCC2)ccc2c1N=C(NC(=O)c1cnc(N)nc1)N1CCN=C21 | PRKG1 isoform beta | kinase activity, inhibitor | 1 µM | reference: untreated control | remaining activity | 89% |
| Nc1ncc(-c2cc(-c3cnn(CC(F)(F)F)c3)ncc2F)nc1C(=O)NC1CNCC(F)C1 (centres unmarked) | PRKG1 | enzyme activity | 1 µM | reference: DMSO control | remaining activity | 108% |
| O=C(Cc1ccc(OCc2ccccc2)cc1)NC1(C(=O)O)CCN(C(=O)c2ccc(-c3cccc(Cl)c3)cc2)CC1 | PRKG1 isoform beta | kinase activity, inhibitor | 10 µM, together with: ATP at Km | – | remaining activity | 107% |
| NC(=O)C[C@H]1CCc2sc3ncnc(O[C@H]4CC[C@H](N5CCOCC5)CC4)c3c21 | PRKG1 isoform beta | radioisotope kinase | 10 µM | – | inhibition | -1% |
| Cc1nc2c(F)cc(-c3nc(Nc4ccc(CNC(=O)CCCCCCC(=O)NO)cc4)ncc3F)cc2n1C(C)C | PRKG1 isoform beta | kinase activity | 1 µM | – | inhibition | 77% |
| NC(=O)[C@@H](O)C[C@H]1CCc2sc3ncnc(O[C@H]4CC[C@H](N5CCOCC5)CC4)c3c21 | PRKG1 isoform beta | radioisotope kinase | 10 µM | – | inhibition | 0% |
| Cc1ccc(-c2c(/C=C(\C#N)C(=O)NC(C)C)n(CCCO)c3ncnc(N)c23)cc1 | PRKG1 | cell-free assay, competition with immobilised ligand | 1 µM | – | remaining binding | 100% |
| C=CC(=O)Nc1cccc(-c2cnc3[nH]cc(C(=O)NC(C)(C)C)c3n2)c1 | PRKG1 | kinase activity | 0.1 µM | – | inhibition | 6% and 4% |
| Nc1ncc2c(n1)-c1c([nH]c3ccc(C4=CCOCC4)cc13)CCC2 | PRKG1 | binding, competition with immobilised ligand | 1 µM | – | remaining binding | 100% |
| O=C=[N][Ru-4]123([n]4c5ccc(O)cc5c5c6c(c7cc(F)c[n+]1c7c54)C(=O)NC6=O)[S+]1CC[S+]2CC[S+]3CC1 (centres unmarked) | PRKG1 | enzyme activity | 100 nM, human enzyme, together with: 10 µM ATP | reference: untreated | remaining activity | 25% |
| CN1CC[C@@H](COc2cnc(C#N)cc2-c2ccn3nc(NC(=O)C4CC4)cc3c2)C1 | PRKG1 | enzyme activity, inhibitor | 1 µM | – | inhibition | -8% |
| Cc1cccc(O[C@H]2CCC[C@@H](C(C)CNCc3ccncc3)C2)c1 (relative stereo) | PRKG1 | enzyme activity, inhibitor | 10 µM | – | inhibition | -11% |
| CC(C)=CC1OC(C)(C)C2C=C3C(=O)C(Cl)=CC(O)C3C3C(O)C4OC4C(=O)C132 (centres unmarked) | PRKG1 | cell-free assay, competition with immobilised ligand | 10 µM | – | remaining binding | 63% |
| O=C(O)CCC(=O)c1cccc(NS(=O)(=O)c2c[nH]c3ncccc23)c1 | PRKG1 | kinase activity, radiometric | 10 µM | – | remaining activity | 99% |
| COc1cc(Nc2nc(C)cc(-c3cnn4nc(OC)ccc34)n2)cc(C(F)(F)F)c1 | PRKG1 | inhibitor | 1 µM | reference: control | remaining activity | 92% |
| C=CC(=O)N1Cc2nc(-c3cc(-c4cc(Cl)cnc4Cl)c(F)cc3F)n(-c3ccncn3)c2C1 | PRKG1 | cell-free assay, inhibitor | 1 µM | – | inhibition | 3% |
| COc1c(Cl)cccc1Nc1c(-c2ccncc2C#C[C@@]2(C)CCCN2C(=O)/C=C/CN(C)C)[nH]c2c1C(=O)NCC2 | PRKG1 | binding, competition with immobilised ligand | 3 µM | – | remaining binding | 100% |
| CCn1cc(C(=O)O)c(=O)c2c(N)c(F)c(NC3CCCCC3)cc21 | PRKG1 | kinase activity | 0.1 µM, together with: ATP at Km | – | inhibition | -2.7% |
| COCC12C(=O)NC3C4(C(OC)CC1O)C1CC5(O)C(OC)C(O)C(OC(C)=O)(C1C5OC(=O)c1ccccc1)C3(O)C(OC)C24 (centres unmarked) | PRKG1 | kinase activity, inhibitor, ProQinase kinase profiling | 25 µM | reference: control | remaining activity | 97% and 100% |
| COc1ccc(NC(=O)Nc2ccc3c(c2)C(=O)N(C(C)CO)CC(C)C(CN(C)Cc2ccc4c(c2)OCO4)O3)cc1 (centres unmarked) | PRKG1 isoform beta | kinase activity, KinaseProfiler | 0.03 µM, species human | reference: control | remaining activity | 105% |
